Results pooled from the literature.
Protocols differ between the studies behind these lines. Substitutions count along the parent as printed. ± marks the error that the study gave.
hel308: hel308 1-690 (Methanothermobacter thermautotrophicus, UniProt O26901)
Sequence of UniProt O26901 (whole entry, unmodified, looked up): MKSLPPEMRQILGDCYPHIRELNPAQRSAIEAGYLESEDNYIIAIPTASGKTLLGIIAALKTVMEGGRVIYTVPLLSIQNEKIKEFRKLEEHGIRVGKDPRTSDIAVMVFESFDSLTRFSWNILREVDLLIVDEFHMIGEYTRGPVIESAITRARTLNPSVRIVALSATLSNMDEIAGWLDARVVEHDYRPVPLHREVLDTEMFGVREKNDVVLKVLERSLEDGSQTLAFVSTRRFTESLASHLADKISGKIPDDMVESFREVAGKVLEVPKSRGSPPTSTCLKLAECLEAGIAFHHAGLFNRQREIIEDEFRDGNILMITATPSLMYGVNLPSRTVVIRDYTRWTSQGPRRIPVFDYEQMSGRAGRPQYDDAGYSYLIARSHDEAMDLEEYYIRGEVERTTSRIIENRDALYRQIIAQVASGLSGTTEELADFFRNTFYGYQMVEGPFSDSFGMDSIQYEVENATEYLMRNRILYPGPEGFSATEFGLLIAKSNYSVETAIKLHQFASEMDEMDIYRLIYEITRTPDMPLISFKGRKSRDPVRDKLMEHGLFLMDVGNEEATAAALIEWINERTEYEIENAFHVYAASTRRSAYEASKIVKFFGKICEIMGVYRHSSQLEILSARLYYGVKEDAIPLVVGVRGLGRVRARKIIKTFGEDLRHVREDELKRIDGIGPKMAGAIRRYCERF
DHX36: DHX36 53-105 (Homo sapiens, UniProt Q9H2U1)
Sequence of UniProt Q9H2U1 (whole entry, looked up): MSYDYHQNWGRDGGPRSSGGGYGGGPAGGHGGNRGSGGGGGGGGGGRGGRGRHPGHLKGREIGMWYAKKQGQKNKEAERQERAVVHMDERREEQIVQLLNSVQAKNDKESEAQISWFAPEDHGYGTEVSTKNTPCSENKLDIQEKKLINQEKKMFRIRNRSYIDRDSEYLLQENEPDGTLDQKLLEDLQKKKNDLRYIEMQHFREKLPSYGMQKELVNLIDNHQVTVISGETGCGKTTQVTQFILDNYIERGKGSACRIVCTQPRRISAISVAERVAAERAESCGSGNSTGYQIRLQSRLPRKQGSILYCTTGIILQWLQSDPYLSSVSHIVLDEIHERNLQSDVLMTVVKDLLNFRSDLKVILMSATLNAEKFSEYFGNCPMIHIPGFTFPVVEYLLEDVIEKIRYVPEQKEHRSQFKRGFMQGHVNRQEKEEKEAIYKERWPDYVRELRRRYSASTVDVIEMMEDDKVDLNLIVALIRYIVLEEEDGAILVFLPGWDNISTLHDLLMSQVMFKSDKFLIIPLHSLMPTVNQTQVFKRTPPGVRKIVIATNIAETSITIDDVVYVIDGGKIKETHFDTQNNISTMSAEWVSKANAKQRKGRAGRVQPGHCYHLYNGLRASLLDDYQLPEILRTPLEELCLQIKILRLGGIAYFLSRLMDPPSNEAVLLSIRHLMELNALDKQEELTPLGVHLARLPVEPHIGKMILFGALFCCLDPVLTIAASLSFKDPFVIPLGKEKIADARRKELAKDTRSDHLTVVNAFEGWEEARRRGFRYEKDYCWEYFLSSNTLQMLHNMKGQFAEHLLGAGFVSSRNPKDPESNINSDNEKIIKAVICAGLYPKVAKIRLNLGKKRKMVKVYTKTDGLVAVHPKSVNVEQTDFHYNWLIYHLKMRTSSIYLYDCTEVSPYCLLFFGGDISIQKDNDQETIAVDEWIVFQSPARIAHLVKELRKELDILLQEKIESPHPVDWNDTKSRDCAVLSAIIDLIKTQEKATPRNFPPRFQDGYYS
Putative PAS/PAC sensor protein full length assumed: Putative PAS/PAC sensor protein full length assumed (Nakamurella multipartita, UniProt C8XJT7)
P1: JPH2 N-terminal region (Mus musculus); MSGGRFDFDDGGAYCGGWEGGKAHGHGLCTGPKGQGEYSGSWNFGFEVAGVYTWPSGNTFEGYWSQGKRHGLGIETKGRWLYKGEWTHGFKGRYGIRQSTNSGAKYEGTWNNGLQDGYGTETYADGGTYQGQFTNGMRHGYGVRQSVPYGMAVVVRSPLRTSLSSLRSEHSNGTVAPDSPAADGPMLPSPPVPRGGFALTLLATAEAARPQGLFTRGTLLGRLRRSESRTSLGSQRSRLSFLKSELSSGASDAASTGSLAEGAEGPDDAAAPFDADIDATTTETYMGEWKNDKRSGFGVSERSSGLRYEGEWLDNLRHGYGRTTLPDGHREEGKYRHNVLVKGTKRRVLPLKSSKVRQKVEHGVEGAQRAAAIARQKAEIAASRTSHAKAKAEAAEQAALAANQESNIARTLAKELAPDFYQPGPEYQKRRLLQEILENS
P2: JPH2 N-terminal region (Danio rerio); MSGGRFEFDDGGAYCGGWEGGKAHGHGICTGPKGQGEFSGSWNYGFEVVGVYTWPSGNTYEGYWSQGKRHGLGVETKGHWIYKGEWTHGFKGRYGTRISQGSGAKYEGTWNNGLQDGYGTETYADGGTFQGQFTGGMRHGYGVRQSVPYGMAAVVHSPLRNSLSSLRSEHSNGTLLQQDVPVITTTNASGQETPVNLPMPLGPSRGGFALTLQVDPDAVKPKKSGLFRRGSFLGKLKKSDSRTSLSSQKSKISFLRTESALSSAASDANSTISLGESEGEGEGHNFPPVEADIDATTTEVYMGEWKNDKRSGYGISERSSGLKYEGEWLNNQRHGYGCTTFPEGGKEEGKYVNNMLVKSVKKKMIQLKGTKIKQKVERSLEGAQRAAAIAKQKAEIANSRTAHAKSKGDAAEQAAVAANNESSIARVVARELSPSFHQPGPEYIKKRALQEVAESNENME
P3: RPC82 (Saccharomyces cerevisiae); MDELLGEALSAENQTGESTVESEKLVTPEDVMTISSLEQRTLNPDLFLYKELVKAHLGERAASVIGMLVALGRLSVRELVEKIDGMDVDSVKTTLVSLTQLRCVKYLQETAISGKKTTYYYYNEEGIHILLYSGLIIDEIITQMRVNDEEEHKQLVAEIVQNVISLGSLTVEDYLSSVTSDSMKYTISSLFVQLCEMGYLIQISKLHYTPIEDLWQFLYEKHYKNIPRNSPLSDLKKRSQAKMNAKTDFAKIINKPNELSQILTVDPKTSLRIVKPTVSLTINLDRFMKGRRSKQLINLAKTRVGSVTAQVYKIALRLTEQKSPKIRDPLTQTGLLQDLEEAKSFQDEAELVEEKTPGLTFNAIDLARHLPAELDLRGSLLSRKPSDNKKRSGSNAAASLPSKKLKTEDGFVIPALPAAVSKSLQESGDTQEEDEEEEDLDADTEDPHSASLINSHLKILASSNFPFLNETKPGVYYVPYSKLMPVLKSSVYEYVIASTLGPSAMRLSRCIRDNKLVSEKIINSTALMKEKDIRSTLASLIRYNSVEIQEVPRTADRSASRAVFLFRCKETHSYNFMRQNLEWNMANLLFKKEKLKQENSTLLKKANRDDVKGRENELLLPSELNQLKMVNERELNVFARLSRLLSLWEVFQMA; partner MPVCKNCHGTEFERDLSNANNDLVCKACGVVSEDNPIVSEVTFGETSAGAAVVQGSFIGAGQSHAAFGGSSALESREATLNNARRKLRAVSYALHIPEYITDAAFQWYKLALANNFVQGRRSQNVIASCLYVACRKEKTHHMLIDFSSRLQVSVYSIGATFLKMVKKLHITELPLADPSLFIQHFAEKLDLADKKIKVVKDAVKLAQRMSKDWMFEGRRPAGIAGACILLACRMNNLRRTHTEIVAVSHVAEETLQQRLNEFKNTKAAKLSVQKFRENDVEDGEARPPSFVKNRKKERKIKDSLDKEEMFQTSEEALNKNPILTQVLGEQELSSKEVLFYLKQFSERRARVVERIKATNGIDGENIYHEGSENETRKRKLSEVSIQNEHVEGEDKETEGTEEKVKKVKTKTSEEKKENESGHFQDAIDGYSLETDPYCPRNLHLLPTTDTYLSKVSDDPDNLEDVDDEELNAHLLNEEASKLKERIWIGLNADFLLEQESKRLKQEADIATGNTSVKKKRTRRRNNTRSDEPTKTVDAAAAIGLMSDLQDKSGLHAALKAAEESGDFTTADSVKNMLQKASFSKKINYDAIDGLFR
P4: C1ql1 globular C1q domain (Mus musculus); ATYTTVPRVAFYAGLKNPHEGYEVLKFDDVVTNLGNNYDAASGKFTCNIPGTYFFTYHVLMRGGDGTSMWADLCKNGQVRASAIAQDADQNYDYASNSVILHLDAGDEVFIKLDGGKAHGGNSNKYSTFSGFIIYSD
Sequence of UniProt Q15365 (whole entry, looked up): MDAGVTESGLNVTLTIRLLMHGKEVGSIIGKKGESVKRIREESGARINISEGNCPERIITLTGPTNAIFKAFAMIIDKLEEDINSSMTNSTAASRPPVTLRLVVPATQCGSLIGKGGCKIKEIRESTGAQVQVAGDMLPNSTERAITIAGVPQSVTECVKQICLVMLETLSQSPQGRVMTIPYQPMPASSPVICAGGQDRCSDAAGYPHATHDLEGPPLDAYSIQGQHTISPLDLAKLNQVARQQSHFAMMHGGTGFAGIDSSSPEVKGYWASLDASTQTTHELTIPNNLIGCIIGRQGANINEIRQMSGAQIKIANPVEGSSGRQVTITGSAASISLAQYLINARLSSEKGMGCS
Sequence of UniProt Q6Z312 (whole entry, looked up): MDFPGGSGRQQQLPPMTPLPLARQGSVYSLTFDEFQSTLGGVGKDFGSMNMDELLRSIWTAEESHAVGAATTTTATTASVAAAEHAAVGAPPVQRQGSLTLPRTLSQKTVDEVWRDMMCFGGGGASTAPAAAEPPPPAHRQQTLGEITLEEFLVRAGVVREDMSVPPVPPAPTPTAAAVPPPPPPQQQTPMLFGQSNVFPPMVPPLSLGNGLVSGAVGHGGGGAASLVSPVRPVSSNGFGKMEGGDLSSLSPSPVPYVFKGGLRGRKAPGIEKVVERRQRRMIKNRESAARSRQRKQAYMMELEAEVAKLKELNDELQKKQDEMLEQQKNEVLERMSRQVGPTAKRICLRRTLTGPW
Sequence of UniProt P67809 (whole entry, looked up): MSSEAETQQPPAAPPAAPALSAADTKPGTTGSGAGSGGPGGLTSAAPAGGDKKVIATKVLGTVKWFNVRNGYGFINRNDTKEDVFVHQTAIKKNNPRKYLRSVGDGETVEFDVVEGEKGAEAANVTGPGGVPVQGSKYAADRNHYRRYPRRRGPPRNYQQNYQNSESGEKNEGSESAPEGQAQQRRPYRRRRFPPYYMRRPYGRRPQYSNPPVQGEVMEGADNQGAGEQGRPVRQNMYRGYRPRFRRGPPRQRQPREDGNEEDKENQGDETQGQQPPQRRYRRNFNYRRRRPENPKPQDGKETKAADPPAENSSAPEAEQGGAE
Sequence of UniProt P21693 (whole entry, looked up): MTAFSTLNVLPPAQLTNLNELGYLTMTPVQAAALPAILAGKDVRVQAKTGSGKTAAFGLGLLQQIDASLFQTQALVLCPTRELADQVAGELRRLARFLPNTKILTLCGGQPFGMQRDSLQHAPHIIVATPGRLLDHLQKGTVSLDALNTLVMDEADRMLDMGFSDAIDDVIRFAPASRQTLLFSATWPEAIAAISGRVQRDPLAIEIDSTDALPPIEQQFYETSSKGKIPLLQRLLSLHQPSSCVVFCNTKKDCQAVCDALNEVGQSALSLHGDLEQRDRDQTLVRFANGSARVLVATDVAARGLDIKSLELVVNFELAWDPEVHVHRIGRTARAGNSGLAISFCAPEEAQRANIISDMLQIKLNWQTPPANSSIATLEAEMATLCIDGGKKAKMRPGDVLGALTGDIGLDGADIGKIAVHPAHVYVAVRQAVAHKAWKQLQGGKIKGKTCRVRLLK
Sequence of UniProt P03950 (whole entry, unmodified, looked up): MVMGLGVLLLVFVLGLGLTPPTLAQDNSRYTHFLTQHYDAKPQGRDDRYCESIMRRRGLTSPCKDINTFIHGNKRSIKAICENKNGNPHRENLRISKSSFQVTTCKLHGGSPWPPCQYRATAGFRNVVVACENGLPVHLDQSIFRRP
Sequence of UniProt Q9SJQ6 (whole entry, looked up): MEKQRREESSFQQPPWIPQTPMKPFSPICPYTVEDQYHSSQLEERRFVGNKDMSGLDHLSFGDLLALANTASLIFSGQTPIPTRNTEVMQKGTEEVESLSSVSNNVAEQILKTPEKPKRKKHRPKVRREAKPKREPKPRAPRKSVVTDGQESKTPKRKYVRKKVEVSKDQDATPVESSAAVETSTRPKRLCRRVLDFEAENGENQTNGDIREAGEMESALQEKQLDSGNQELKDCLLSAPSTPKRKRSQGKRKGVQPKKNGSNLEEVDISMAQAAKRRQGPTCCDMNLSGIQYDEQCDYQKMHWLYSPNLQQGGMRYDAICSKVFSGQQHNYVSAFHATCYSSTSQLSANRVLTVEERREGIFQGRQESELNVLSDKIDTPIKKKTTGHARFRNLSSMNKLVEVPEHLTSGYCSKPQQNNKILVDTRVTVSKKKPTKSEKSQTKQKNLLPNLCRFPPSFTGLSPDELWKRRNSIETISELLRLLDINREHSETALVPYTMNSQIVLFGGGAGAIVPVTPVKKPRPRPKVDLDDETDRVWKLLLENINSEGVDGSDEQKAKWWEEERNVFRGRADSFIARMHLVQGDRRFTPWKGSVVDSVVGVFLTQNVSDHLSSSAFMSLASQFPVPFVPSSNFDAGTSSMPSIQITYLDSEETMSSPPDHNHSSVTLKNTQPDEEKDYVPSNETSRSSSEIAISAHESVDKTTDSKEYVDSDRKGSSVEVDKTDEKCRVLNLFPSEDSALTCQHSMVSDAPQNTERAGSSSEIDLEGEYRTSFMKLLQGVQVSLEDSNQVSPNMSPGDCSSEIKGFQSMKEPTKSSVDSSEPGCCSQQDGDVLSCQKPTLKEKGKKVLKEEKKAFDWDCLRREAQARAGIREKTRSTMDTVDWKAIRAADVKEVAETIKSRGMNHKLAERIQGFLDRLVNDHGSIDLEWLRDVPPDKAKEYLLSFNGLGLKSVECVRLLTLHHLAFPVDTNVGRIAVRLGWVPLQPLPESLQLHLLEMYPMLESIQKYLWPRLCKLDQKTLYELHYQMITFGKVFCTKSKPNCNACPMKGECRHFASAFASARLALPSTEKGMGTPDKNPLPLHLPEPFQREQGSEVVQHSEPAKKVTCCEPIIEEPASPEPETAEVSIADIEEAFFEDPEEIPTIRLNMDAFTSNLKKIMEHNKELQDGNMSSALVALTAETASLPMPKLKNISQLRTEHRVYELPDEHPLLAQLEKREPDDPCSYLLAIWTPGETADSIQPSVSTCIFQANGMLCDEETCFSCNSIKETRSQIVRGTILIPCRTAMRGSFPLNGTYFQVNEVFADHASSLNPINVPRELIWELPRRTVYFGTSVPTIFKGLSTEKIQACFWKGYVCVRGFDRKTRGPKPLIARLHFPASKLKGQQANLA
Sequence of UniProt Q6NS38 (whole entry, looked up): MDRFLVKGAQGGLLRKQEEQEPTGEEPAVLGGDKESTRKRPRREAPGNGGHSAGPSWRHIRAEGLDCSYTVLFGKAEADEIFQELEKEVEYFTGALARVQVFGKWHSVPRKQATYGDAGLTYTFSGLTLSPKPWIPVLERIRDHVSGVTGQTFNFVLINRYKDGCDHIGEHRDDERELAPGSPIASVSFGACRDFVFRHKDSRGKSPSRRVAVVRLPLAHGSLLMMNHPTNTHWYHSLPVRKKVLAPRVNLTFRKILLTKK

Molecule | tested on | test | system | conditions | scale | endpoint | result
DNA 1 CAACGTCATAGACGATTACATTGCTACATGGAGCTGTCTAGAGGATCCGA / DNA 2 GTCGGATCCTCTAGACAGCTCCATGATCACTGGCACTGGTAGAATTCGGC / DNA 3 TGCCGAATTCTACCAGTGCCAGTGAT / DNA 4 TAGCAATGTAATCGTCTATGACGTT (dsDNA; fork, leading and lagging strands) | hel308 | EMSA | folded DNA |  |  | binding | binds
GGUUUGUUACUGAUAAAGCAGGCAAGACC (ssRNA (Bacillus subtilis); hairpin, two internal loops) | licT 1-56 R27A (Bacillus subtilis, UniProt P39805) | SPR | folded RNA |  |  | Kd | 120 ± 48 µM
P1 L163E S165F | CACNA1C JBM (Mus musculus) | ITC |  |  |  | Kd | 16.2 µM
GCCCTGAAAGATTATGGAATGGGATTAGGGTAAAGGAAGAGAGCATAATCTTTCAGGGC (hairpin DNA; hairpin, 16 bp stem, 27 nt loop) | topA full length assumed R173A (Escherichia coli, UniProt P06612) | fluorescence anisotropy | folded DNA | added: EDTA |  | Kd | 0.00061 ± 9e-05 µM
TCACGCGGGATCAATGTGTTCTTTCAGCTCCGGTCACGCTGACCAGGAATACCTCACTACC (dsDNA; one 5-methyl-dC opposite G) | ROS1 1-1393 (Arabidopsis thaliana, UniProt Q9SJQ6) | EMSA | double-stranded DNA, one strand shown | 130 nM |  | binding | binds
GGGUUGCGGAGCGUGCGCCUGCGAGCGGUGGUGGCCAUUUUUU (ssRNA) | DHX36 | EMSA | RNA |  |  | binding | no binding
AAUUGCUACCCAAUGCCUGGCCCAAGGGCAUUCCCAAAGCUUA (ssRNA) | Pcbp1 13-75 (Mus musculus, UniProt P60335) | EMSA | RNA |  |  | binding | binds
GCCAATC (ssDNA) | YBX1 51-140 (Homo sapiens, UniProt P67809) | ITC | single-stranded DNA |  |  | binding | binds
P2 S165F | CACNA1C JBM (Mus musculus) | Strep pull-down |  | read off a plot | baseline: unchanged protein, higher = more binding | relative binding | 33%
P3 K403A K404A L405A K406A E408A D409A | BRF1 (Saccharomyces cerevisiae) | co-IP |  |  | baseline: unchanged protein, higher = more partner bound | relative binding | 0.48
GCCCTGAAAGATTATGGAATGCGATTAGGGTAAAGGAAGAGAGCATAATCTTTCAGGGC (hairpin DNA; hairpin, 16 bp stem, 27 nt loop) | topA full length assumed Y177S (Escherichia coli, UniProt P06612) | fluorescence anisotropy | folded DNA | added: EDTA |  | Kd | 0.00048 ± 2e-05 µM
GGUUGAUGCAGACGACC (structured RNA) | Putative PAS/PAC sensor protein full length assumed | 32P well-retention assay | folded RNA | added: blue light |  | binding | no binding
P4 D72N | ADGRB3 CUB domain (Homo sapiens) | ITC |  | added: Ca2+ 2 mM |  | Kd | 6 µM
CCGGGTAAATGCGCG (dsDNA; 1-methyladenine, 2-aminopurine) | ALKBH2 56-261 (Homo sapiens, UniProt Q6NS38) | 2-aminopurine fluorescence | double-stranded DNA, one strand shown |  |  | binding | binds
DNA 1 ATCGATAGTCTCTAGACAGCATGTCCTAGCAAGCCAGAATTCGGCAGCGT / DNA 2 GACGCTGCCGAATTCTGGCTTGCTATGTAACTCTTTGCCCACGTTGACCC / DNA 3 GGACATGCTGTCTAGAGACTATCGAT (dsDNA; fork, lagging strand only) | hel308 1-690 K51L (Methanothermobacter thermautotrophicus, UniProt O26901) | EMSA | folded DNA |  |  | binding | binds
GGUUGAAGCUGACGACC (structured RNA) | Putative PAS/PAC sensor protein full length assumed | 32P well-retention assay | folded RNA | added: blue light |  | binding | no binding
DNA 1 ATCGATAGTCTCTAGACAGCATGTCCTAGCAAGCCAGAATTCGGCAGCGT / DNA 2 ACGCTGCCGAATTCTGGCTTGCTAGG (DNA; 5' ssDNA tail) | hel308 | EMSA |  |  |  | binding | binds

Molecule | tested on | test | system | conditions | scale | endpoint | result
GGGAGGACGAUGCGGUCCCUACGGAAGACGAUCGUCUUUUCCUUGGCUAGUCAAGCAGACGACUCGCUGAGGAUCCGAGA (stem-loop RNA; stem loop) | Putative PAS/PAC sensor protein full length assumed | RiboGreen well assay | folded RNA | added: blue light |  | binding | binds
CCCGGATCCGTAGTGACCAAAGCTATATTTACCAACGAATGTAGATGAAAAAATCATCTCCTGCGTTCCCCCATATCTCTAGGATAAAAAGGAATGTAACAATCTCATGGCGTAAGCTGACGAATCAGCAGGAATAATCGCTAGGGACCTAAGAATTAGCATGATAATAGCCACTAAGAAATTACTGCGCTCCATGAAATAGCCATTTTGTGGCAAATGGAGTTGACTAATAATGTCATATGTGAGACGGCTAGTTGAACGAATATTAAATTTTGCTGAATTTTTTATGTCGACGGG (dsDNA) | slyA full length assumed (Escherichia coli, UniProt P0A8W2) | EMSA | double-stranded DNA, one strand shown |  |  | binding | binds
UUUUCUUUUUUCUUAUUCUUAUU (ssRNA) | NAB3 321-415 E397A (Saccharomyces cerevisiae, UniProt P38996) | fluorescence anisotropy | RNA |  |  | binding | binds
AAACCUUCUUCCCCAGAACCAGCACCACCUUCUGAGGCAAUGGACGCAGA (ssRNA (Homo sapiens); stem-loop, asymmetric bulge) | PCBP1 (Homo sapiens, UniProt Q15365) | EMSA | folded RNA |  |  | binding | binds
AUUUUUUUUUUUUAGGUCUUAAGGGUAUGGCUGUUCGCCAUUU (structured RNA) | dbpA full length assumed (Escherichia coli, UniProt P21693) | SPR | folded RNA | KCl 50 mM, kinetic, no ATP |  | Kd | 0.0569 ± 0.0002 µM
GGGAGGACGAUGCGGUACAGCAGCGUUGCCAAAAAACGUCCACCUCAGGGAUUGUCAGACGACUCGCUGAGGAUCCGAGA (stem-loop RNA; stem loop) | Putative PAS/PAC sensor protein full length assumed | RiboGreen well assay | folded RNA | residual dark binding, added: blue light |  | binding | binds
CAAAACGAAGCTTCGCGCG (dsDNA) | HSFA3 full length assumed (Arabidopsis thaliana, UniProt Q8GYY1) | EMSA | double-stranded DNA, one strand shown |  |  | binding | binds
UAACACUGUCUGGUAAAGAUGG (ssRNA) | ANG 25-147 K64I (Homo sapiens, UniProt P03950) | EMSA | RNA | 5-30 min, 37 °C |  | binding | no binding
GGGAGGACGAUGCGGGUUCAGAAGCGCAGCUCGUUGACCCUCCAUCGGUAGUACUCAGACGACUCGCUGAGGAUCCGAGA (stem-loop RNA; stem loop) | Putative PAS/PAC sensor protein full length assumed | RiboGreen well assay | folded RNA | residual dark binding, added: blue light |  | binding | binds
RNA 1 GGGUAAUGCCCCUCCCCUCUCACACCUCCGGGAUCAGUGACCGGAGGGCGGUCGGGGAGGGGACACCU / RNA 2 GGGUUUAGACCGUCGUGAGAGA (dsRNA (Pyrococcus abyssi); guide:target duplex) | CBF5/NOP10 (Pyrococcus abyssi) | EMSA | folded RNA |  |  | binding | binds
GGGUUGCGGAGGGUGGGCCU (G-quadruplex RNA (Homo sapiens); G4) | DHX36 | EMSA | folded RNA |  |  | binding | binds
GGUUGUAGCAGACGACC (structured RNA) | Putative PAS/PAC sensor protein full length assumed | 32P well-retention assay | folded RNA | added: blue light |  | binding | no binding
GGAUUGUUACUGAUAAAGCAGGCAAAACC (ssRNA; hairpin, two internal loops) | licT 1-56 Q32N (Bacillus subtilis, UniProt P39805) | SPR | folded RNA |  |  | Kd | 0.05 ± 0.02 µM
GTAGGAGGCGCGGCTGCCACGAGACGAGGTCATTGGCCCCCATGCAGCAC (dsDNA) | BZIP23 1-357 (Oryza sativa, UniProt Q6Z312) | EMSA | double-stranded DNA, one strand shown |  |  | binding | no binding
GGGAGGACGAUGCGGUAGGGUCCUGCCUGUUGCGAUCCUGGGCAUGCAAAUUCCAGACGACUCGCUGAGGAUCCGAGA (structured RNA) | Putative PAS/PAC sensor protein full length assumed | 32P well-retention assay, RiboGreen | folded RNA | added: blue light |  | binding | no binding
AAGCCCGGCACCCACAACCAGCTTTCTC (dsDNA) | AP2/ERF domain-containing protein 1-442 (Vitis vinifera, UniProt A5C831) | EMSA | double-stranded DNA, one strand shown |  |  | binding | binds

Repeated from above:
Molecule | tested on | test | system | conditions | scale | endpoint | result
AAGCCCGGCACCCACAACCAGCTTTCTC (dsDNA) | AP2/ERF domain-containing protein 1-442 (Vitis vinifera, UniProt A5C831) | EMSA | double-stranded DNA, one strand shown |  |  | binding | binds
GCCAATC (ssDNA) | YBX1 51-140 (Homo sapiens, UniProt P67809) | ITC | single-stranded DNA |  |  | binding | binds
GGAUUGUUACUGAUAAAGCAGGCAAAACC (ssRNA; hairpin, two internal loops) | licT 1-56 Q32N (Bacillus subtilis, UniProt P39805) | SPR | folded RNA |  |  | Kd | 0.05 ± 0.02 µM
